{"data": "Published values from different studies", "method": "steady-state kinetics", "B1": "POLH (Homo sapiens, UniProt Q9Y253); chain MATGQDRVVALVDMDCFFVQVEQRQNPHLRNKPCAVVQYKSWKGGGIIAVSYEARAFGVTRSMWADDAKKLCPDLLLAQVRESRGKANLTKYREASVEVMEIMSRFAVIERASIDEAYVDLTSAVQERLQKLQGQPISADLLPSTYIEGLPQGPTTAEETVQKEGMRKQGLFQWLDSLQIDNLTSPDLQLTVGAVIVEEMRAAIERETGFQCSAGISHNKVLAKLACGLNKPNRQTLVSHGSVPQLFSQMPIRKIRSLGGKLGASVIEILGIEYMGELTQFTESQLQSHFGEKNGSWLYAMCRGIEHDPVKPRQLPKTIGCSKNFPGKTALATREQVQWWLLQLAQELEERLTKDRNDNDRVATQLVVSIRVQGDKRLSSLRRCCALTRYDAHKMSHDAFTVIKNCNTSGIQTEWSPPLTMLFLCATKFSASAPSSSTDITSFLSSDPSSLPKVPVTSSEAKTQGSGPAVTATKKATTSLESFFQKAAERQKVKEASLSSLTAPTQAPMSNSPSKPSLPFQTSQSTGTEPFFKQKSLLLKQKQLNNSSVSSPQQNPWSNCKALPNSLPTEYPGCVPVCEGVSKLEESSKATPAEMDLAHNSQSMHASSASKSVLEVTQKATPNPSLLAAEDQVPCEKCGSLVPVWDMPEHMDYHFALELQKSFLQPHSSNPQVVSAVSHQGKRNPKSPLACTNKRPRPEGMQTLESFFKPLTH", "B2": "CYP2C19 (Homo sapiens, UniProt P33261); chain MDPFVVLVLCLSCLLLLSIWRQSSGRGKLPPGPTPLPVIGNILQIDIKDVSKSLTNLSKIYGPVFTLYFGLERMVVLHGYEVVKEALIDLGEEFSGRGHFPLAERANRGFGIVFSNGKRWKEIRRFSLMTLRNFGMGKRSIEDRVQEEARCLVEELRKTKASPCDPTFILGCAPCNVICSIIFQKRFDYKDQQFLNLMEKLNENIRIVSTPWIQICNNFPTIIDYFPGTHNKLLKNLAFMESDILEKVKEHQESMDINNPRDFIDCFLIKMEKEKQNQQSEFTIENLVITAADLLGAGTETTSTTLRYALLLLLKHPEVTAKVQEEIERVIGRNRSPCMQDRGHMPYTDAVVHEVQRYIDLIPTSLPHAVTCDVKFRNYLIPKGTTILTSLTSVLHDNKEFPNPEMFDPRHFLDEGGNFKKSNYFMPFSAGKRICVGEGLARMELFLFLTFILQNFNLKSLIDPKDLDTTPVVNGFASVPPFYQLCFIPV", "B3": "protein (Danio rerio, UniProt A0EXC5); chain MTESELYSVHKGVFVPTHLHPAESLKYYEDFIFRPDDILIVTYPKSGTIWMQEIVPLVVSEGDLTLVLTVPNWDRVPWLEEHRAILLSLEQRASPRIFATHFHHQMMNPSYFKIEPRVLYVMRNPKDVFISSFHYYGMASFLVNPGTQDEFMEKFLNGNIMFGSWFDHVKGWLNAAEQEHILYISYEEMINDLRASVEKIATFLGKSLSSEVVEKIADHCVFKNMKQNKMSNLSLVPEEFMDQKKSEFLRKGIAGDWKNHFSAAQEERFNAVYDDKMKDVKFKFPWD", "B4": "ADA (Homo sapiens, UniProt P00813); chain MAQTPAFDKPKVELHVHLDGSIKPETILYYGRRRGIALPANTAEGLLNVIGMDKPLTLPDFLAKFDYYMPAIAGCREAIKRIAYEFVEMKAKEGVVYVEVRYSPHLLANSKVEPIPWNQAEGDLTPDEVVALVGQGLQEGERDFGVKARSILCCMRHQPNWSPKVVELCKKYQQQTVVAIDLAGDETIPGSSLLPGHVQAYQEAVKSGIHRTVHAGEVGSAEVVKEAVDILKTERLGHGYHTLEDQALYNRLRQENMHFEICPWSSYLTGAWKPDTEHAVIRLKNDQANYSLNTDDPLIFKSTLDTDYQMTKRDMGFTEEEFKRLNINAAKSSFLPEDEKRELLDLLYKAYGMPPSASAGQNL", "B5": "enzyme (Tanacetum cinerariifolium, UniProt H6U1I8); chain SQQAAALFIFGDSVFDPGNNNHINTHVNFKANFWPYGQSYFSSPTGRFSDGRIIPDFIAEYASLPIIPAYLEPNNDFTHGANFASAGAGALIASHAGLAVGLQTQLRYFGDLVDHYRQNLGDIKSRQLLSDAVYLFSCGGNDYQSPYYPYTQEQYVDIVIGNMTNVIKGIYEKGGRKFGVVNVPLIGCWPGMRAKQPGNTCNTEVDELTRLHNQAFAKRLEQLEKQLEGFVYAKFDLSTAILNRMKNPSKYGFKEGESACCGSGPFGGNYDCGRIKEFGLCDNATEYFFFDPFHPNELASRQFAEMFWDGDSMVTQPYNLKALFEGKPSTKYLPNDEL", "B6": "Comt (Rattus norvegicus, UniProt P22734); chain MPLAAVSLGLLLLALLLLLRHLGWGLVTIFWFEYVLQPVHNLIMGDTKEQRILRYVQQNAKPGDPQSVLEAIDTYCTQKEWAMNVGDAKGQIMDAVIREYSPSLVLELGAYCGYSAVRMARLLQPGARLLTMEMNPDYAAITQQMLNFAGLQDKVTILNGASQDLIPQLKKKYDVDTLDMVFLDHWKDRYLPDTLLLEKCGLLRKGTVLLADNVIVPGTPDFLAYVRGSSSFECTHYSSYLEYMKVVDGLEKAIYQGPSSPDKS", "B7": "FMO3 V277A (Homo sapiens, UniProt P31513); chain GKKVAIIGAGVSGLASIRSCLEEGLEPTCFEKSNDIGGLWKFSDHAEEGRASIYKSVFSNSSKEMMCFPDFPFPDDFPNFMHNSKIQEYIIAFAKEKNLLKYIQFKTFVSSVNKHPDFATTGQWDVTTERDGKKESAVFDAVMVCSGHHVYPNLPKESFPGLNHFKGKCFHSRDYKEPGVFNGKRVLVVGLGNSGCDIATELSRTAEQVMISSRSGSWVMSRVWDNGYPWDMLLVTRFGTFLKNNLPTAISDWLYVKQMNARFKHENYGLMPLNGALRKEPVFNDELPASILCGIVSVKPNVKEFTETSAIFEDGTIFEGIDCVIFATGYSFAYPFLDESIIKSRNNEIILFKGVFPPLLEKSTIAVIGFVQSLGAAIPTVDLQSRWAAQVIKGTCTLPSMEDMMNDINEKMEKKRKWFGKSETIQTDYIVYMDELSSFIGAKPNIPWLFLTDPKLAMEVYFGPCSPYQFRLVGPGQWPGARNAILTQWDRSLKPMQTRVVGRLQKPCFFFHWLKLFAIPILLIAVFLVLT", "B8": "UGT1A9 (Homo sapiens, UniProt O60656); chain GKLLVVPMDGSHWFTMRSVVEKLILRGHEVVVVMPEVSWQLGRSLNCTVKTYSTSYTLEDLDREFKAFAHAQWKAQVRSIYSLLMGSYNDIFDLFFSNCRSLFKDKKLVEYLKESSFDAVFLDPFDNCGLIVAKYFSLPSVVFARGILCHYLEEGAQCPAPLSYVPRILLGFSDAMTFKERVRNHIMHLEEHLLCHRFFKNALEIASEILQTPVTEYDLYSHTSIWLLRTDFVLDYPKPVMPNMIFIGGINCHQGKPLPMEFEAYINASGEHGIVVFSLGSMVSEIPEKKAMAIADALGKIPQTVLWRYTGTRPSNLANNTILVKWLPQNDLLGHPMTRAFITHAGSHGVYESICNGVPMVMMPLFGDQMDNAKRMETKGAGVTLNVLEMTSEDLENALKAVINDKSYKENIMRLSSLHKDRPVEPLDLAVFWVEFVMRHKGAPHLRPAAHDLTWYQYHSLDVIGFLLAVVLTVAFITFKCCAYGYRKCLGKKGRVKKAHKSKTH", "B9": "enzyme (Candida albicans, UniProt A0A1D8PHX1); chain MISIIQNGISQLSSVSGLDEANLKILICTLLSFPFGIIFKRLPDHDYTLKNIYNVAVSCFYVFGICDLRFGISTLLISATGSYFITRYVRTKSMPWINFLFLMIHMAYSHFHLQFFKEYDPKSIDITGAQMILVMKLSAFGWNIHDGKQPRSTLNDFNKARAITKHPNVLPYIGYVFFYASLLTGPAFDYADYDKFIHGTLFDDVPQDKRPGKNKRRIPRSGVQAFKKFSLGFFWAFLLLQSDKFVTMEYMFSPEFVQYHGLFYRIIYMWILGFTFRLKYYTIWTIAEGACILCGIGYNGVDPETGEFKWNRVQNIDPWSFETGQNVHACLEAWNQNTNIWLKNYVYLRVAKPGKKPGFKSTIFTFTTSAFWHGTRPGYYLTFVVGALMQTVGKYYRRNFRPIFLEADGKTPKPTKIVYDFVCWVNTQLAFGFFVQPFVILGFTKSLECWATVYYWLLWVIAISFFAFSGPFAKSVSKFFKSLQPSYREQQRKSREDKYKLNNEEASIVEQAVGAKLGQDYDIPALGLPPFDVFTDFDQTEVDHDIQHLRKAWTSFRGRRGSITENDFDGLKDAYNNFTNEINDIFNTKKEEFKKEKLNKQN", "B10": "enzyme D382E (Arabidopsis thaliana, UniProt O82390); chain MNARALLCSSNIHSLYTSNRPPEKTSSSRSLRNLKPSPKSLRVWIYPRNRSSVFRVLVRSSDKSESSNSYYVEGDKVSGNNDVVSDSPSSIVLPWWEEFPKRWVIVLLCFSAFLLCNMDRVNMSIAILPMSAEYGWNPATVGLIQSSFFWGYLLTQIAGGIWADTVGGKRVLGFGVIWWSIATILTPVAAKLGLPYLLVVRAFMGVGEGVAMPAMNNILSKWVPVQERSRSLALVYSGMYLGSVTGLAFSPFLIHQFGWPSVFYSFGSLGTVWLTLWLTKAESSPLEDPTLLPEERKLIADNCASKEPVKSIPWRLILSKPPVWALISCHFCHNWGTFILLTWMPTYYHQVLKFNLMESGLLSVFPWMTMAISANAGGWIAETLVSRGFSVTNVRKIMQTIGFLGPAFFLTQLKHIDSPTMAVLCMACSQGTDAFSQSGLYSNHQDIAPRYSGVLLGLSNTAGVLAGVLGTAATGHILQHGSWDDVFTISVGLYLVGTVIWNLFSTGEKIID", "note": "Protocols differ between the studies behind these lines."}
{"Substance": "B1 (POLH)", "substrate": "Nc1nc2c(ncn2[C@H]2C[C@H](O)[C@@H](COP(=O)(O)OP(=O)(O)OP(=O)(O)O)O2)c(=O)[nH]1", "setting": "30 °C", "Vmax": "2.33e-09 µmol/min"}
{"Substance": "B2 (CYP2C19)", "substrate": "CN1C(=O)CC[C@H]1c1cccnc1", "test system": "microsomes", "setting": "pH 6.7, cotinine to COX, not purified", "Vmax": "1.5e-05 µmol/min/mg"}
{"Substance": "B3 (protein)", "substrate": "C[C@H](CCCC(CO)CO)[C@H]1CC[C@H]2[C@@H]3[C@H](O)C[C@H]4C[C@H](O)CC[C@]4(C)[C@H]3C[C@H](O)[C@]12C", "setting": "pH 7, 28 °C, substrate inhibition, added: PAPS 14 µM", "Vmax": "0.0247 µmol/min/mg"}
{"Substance": "B4 (ADA)", "substrate": "Nc1ncnc2c1ncn2[C@@H]1O[C@H](CO)[C@@H](O)[C@H]1O", "test system": "HEK293, cell homogenate", "setting": "pH 5.8, 37 °C, not purified", "Vmax": "0.622 µmol/min/mg"}
{"Substance": "B5 (enzyme)", "substrate": "CC(C)=C[C@@H]1[C@@H](C(=O)SCCn2ccnc2)C1(C)C", "setting": "pH 7.5, 25 °C", "Vmax": "0.2 µmol/min/mg"}
{"Substance": "B6 (Comt)", "substrate": "O=c1oc2c(O)c(O)ccc2cc1-c1nc2ccccc2s1", "test system": "rat liver S9", "setting": "pH 7.4, 37 °C", "Vmax": "0.00084 µmol/min/mg"}
{"Substance": "B7 (FMO3 V277A)", "substrate": "CN1CCC[C@H]1c1cccnc1", "test system": "HEK293 microsomes", "setting": "37 °C, not purified, added: NADPH regenerating system", "Vmax": "6.7e-06 µmol/min/mg"}
{"Substance": "B8 (UGT1A9)", "substrate": "COc1cc(OC)c2c(=O)c(O)c(-c3ccccc3)oc2c1", "setting": "pH 7.4, 37 °C", "Vmax": "0.0033 µmol/min/mg"}
{"Substance": "B9 (enzyme)", "substrate": "CCCCCCCC/C=C\\CCCCCCCC(=O)SCCNC(=O)CCNC(=O)[C@H](O)C(C)(C)COP(=O)(O)OP(=O)(O)OC[C@H]1O[C@@H](n2cnc3c(N)ncnc32)[C@H](O)[C@@H]1OP(=O)(O)O", "setting": "pH 7.4, 37 °C, apparent, not purified", "Vmax": "0.0394 µmol/min/mg"}
{"Substance": "B10 (enzyme D382E)", "substrate": "O=P(O)(O)O", "setting": "pH 6.5, 25 °C, apparent, not purified", "Vmax": "0.00168 µmol/min/mg"}
{"Substance": "enzyme (Leishmania major, UniProt E9AE57)", "substrate": "O=C(O)C[C@H](O)C(=O)O", "Vmax": "485 µmol/min/mg"}
